Measured values of several laboratories.
Numbered parts are unrelated; each lists some results of a single study.
UniProt P10721, sequence (whole entry, unmodified, looked up): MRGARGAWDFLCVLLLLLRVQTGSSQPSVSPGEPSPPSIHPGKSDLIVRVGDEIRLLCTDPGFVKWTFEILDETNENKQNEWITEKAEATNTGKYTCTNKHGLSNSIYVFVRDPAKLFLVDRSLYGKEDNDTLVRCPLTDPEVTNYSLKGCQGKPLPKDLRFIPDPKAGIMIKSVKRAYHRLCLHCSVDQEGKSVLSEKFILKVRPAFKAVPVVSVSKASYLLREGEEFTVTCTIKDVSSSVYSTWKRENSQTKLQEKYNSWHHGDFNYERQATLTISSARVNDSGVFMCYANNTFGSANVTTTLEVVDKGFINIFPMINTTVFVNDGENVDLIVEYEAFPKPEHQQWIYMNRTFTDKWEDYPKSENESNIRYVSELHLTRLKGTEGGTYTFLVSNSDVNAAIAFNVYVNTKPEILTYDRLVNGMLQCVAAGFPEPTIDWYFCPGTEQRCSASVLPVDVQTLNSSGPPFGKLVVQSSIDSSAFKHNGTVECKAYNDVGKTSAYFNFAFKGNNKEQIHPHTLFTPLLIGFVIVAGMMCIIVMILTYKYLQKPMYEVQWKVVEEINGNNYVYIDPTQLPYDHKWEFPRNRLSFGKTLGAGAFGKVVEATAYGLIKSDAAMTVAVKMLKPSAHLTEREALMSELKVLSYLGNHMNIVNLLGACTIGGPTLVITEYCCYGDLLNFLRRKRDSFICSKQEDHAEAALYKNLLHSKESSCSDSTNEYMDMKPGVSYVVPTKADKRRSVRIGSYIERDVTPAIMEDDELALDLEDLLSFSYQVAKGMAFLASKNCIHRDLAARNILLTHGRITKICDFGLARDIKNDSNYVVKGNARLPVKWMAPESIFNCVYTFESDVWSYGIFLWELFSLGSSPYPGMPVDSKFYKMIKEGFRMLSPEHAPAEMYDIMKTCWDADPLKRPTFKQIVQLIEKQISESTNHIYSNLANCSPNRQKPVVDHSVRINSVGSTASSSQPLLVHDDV
UniProt Q08881, sequence (whole entry, looked up): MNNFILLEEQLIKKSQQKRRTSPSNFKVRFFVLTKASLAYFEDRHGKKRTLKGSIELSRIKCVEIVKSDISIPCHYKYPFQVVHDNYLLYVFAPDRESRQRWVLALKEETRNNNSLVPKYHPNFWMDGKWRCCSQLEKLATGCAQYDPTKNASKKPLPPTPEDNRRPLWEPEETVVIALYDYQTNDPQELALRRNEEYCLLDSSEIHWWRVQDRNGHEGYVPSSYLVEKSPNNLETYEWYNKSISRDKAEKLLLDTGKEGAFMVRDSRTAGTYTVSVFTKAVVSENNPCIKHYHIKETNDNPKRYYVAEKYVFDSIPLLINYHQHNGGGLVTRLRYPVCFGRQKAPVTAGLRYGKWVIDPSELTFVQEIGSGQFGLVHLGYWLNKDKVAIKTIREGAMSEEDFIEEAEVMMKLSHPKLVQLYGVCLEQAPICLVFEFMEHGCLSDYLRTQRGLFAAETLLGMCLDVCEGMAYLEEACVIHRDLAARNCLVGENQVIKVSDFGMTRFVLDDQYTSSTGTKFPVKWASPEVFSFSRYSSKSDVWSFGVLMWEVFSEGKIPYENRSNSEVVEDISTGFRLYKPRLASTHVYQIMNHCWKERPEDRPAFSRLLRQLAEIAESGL
UniProt Q9P289, sequence (whole entry, looked up): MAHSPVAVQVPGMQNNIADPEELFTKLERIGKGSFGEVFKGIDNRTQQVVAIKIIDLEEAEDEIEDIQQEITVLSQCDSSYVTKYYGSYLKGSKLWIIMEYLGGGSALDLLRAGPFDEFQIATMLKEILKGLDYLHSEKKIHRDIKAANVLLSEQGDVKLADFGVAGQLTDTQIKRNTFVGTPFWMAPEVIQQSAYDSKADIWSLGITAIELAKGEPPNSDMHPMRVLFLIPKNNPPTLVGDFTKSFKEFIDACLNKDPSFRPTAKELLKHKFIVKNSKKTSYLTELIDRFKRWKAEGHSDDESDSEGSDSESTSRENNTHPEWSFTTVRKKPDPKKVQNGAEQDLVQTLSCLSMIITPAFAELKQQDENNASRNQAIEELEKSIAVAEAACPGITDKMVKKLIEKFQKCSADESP
UniProt Q05397, sequence (whole entry, looked up): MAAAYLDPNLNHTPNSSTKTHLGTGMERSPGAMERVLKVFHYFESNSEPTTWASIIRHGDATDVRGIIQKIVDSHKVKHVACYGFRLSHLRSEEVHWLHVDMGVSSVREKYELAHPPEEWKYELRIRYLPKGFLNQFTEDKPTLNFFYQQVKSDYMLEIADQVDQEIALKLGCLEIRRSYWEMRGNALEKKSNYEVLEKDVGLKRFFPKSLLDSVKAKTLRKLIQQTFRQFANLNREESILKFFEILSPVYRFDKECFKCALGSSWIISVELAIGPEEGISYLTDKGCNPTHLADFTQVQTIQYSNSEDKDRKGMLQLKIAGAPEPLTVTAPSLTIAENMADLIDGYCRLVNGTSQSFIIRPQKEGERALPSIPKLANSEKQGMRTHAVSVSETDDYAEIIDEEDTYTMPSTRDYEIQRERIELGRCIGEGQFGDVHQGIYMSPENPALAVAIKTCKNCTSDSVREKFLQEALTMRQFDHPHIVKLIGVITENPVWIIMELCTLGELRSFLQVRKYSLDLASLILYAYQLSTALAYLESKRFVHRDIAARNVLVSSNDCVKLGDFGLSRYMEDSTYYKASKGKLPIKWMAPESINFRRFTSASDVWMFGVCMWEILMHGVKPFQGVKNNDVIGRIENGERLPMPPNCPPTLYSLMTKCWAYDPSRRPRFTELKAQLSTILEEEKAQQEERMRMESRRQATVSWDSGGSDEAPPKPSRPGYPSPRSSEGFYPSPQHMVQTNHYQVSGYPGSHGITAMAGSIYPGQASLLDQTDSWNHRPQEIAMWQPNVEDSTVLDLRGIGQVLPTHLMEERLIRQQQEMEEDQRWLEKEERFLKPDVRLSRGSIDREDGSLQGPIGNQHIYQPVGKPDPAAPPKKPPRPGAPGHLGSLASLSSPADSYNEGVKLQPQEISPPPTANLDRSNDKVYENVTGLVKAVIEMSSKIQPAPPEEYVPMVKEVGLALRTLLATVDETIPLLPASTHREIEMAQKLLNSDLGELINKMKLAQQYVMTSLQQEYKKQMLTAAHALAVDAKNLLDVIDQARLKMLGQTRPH
UniProt Q00526, sequence (whole entry, looked up): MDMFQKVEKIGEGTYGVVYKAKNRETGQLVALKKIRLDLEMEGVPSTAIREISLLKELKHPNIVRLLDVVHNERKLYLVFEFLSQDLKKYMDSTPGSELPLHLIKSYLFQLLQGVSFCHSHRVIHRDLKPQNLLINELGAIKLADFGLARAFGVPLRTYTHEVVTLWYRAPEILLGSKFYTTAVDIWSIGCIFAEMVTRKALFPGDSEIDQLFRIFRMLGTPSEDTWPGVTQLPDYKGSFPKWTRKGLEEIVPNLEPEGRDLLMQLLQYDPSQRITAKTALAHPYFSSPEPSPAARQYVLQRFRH
UniProt P30530, sequence (whole entry, looked up): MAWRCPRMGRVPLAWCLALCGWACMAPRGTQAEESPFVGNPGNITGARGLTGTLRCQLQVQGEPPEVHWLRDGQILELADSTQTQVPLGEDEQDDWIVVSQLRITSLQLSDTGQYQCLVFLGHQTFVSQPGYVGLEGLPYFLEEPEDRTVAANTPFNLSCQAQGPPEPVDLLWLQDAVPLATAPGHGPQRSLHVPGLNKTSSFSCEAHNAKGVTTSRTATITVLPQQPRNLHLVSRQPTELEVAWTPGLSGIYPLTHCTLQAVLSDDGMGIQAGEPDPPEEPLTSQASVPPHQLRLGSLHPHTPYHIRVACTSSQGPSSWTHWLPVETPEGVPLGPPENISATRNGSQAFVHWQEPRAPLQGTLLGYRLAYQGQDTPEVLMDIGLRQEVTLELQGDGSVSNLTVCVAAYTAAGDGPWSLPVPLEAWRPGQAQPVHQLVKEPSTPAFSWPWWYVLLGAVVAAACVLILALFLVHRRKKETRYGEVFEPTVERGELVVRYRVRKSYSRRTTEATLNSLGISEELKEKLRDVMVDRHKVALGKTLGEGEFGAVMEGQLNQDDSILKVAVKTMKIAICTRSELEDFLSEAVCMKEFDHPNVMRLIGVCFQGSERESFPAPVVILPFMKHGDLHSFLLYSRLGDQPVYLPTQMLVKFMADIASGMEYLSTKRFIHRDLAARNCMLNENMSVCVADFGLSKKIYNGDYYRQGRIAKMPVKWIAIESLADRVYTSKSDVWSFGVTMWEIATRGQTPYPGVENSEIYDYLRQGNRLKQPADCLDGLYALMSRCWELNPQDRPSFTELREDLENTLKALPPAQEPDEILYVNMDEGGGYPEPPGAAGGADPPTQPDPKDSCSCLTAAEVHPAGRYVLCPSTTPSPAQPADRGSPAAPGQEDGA
UniProt P51617, sequence (whole entry, looked up): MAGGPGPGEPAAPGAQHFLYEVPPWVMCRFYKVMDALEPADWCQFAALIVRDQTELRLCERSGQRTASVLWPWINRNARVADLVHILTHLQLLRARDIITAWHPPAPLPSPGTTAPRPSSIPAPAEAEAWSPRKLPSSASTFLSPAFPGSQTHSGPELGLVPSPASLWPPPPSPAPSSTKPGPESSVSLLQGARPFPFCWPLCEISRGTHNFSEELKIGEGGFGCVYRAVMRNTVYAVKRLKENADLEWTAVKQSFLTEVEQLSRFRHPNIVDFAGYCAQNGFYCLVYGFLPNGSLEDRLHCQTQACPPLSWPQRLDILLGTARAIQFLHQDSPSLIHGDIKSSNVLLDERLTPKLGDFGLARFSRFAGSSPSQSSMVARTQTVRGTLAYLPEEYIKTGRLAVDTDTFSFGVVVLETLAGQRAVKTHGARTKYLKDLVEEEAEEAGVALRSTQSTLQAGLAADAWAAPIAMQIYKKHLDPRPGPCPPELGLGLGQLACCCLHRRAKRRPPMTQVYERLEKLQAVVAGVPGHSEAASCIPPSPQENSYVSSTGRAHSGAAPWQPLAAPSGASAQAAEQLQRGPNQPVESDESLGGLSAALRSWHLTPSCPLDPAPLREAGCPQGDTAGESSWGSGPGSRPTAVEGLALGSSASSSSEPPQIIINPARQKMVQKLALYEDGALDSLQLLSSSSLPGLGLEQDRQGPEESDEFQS

Block 1
Structure (SMILES): CCOCCn1cc(C(=O)Nc2ccc(-n3nc(-c4cccnc4)cc3C(F)(F)F)cn2)ccc1=O
Read-out: cell-free assay
Method: competition with immobilised ligand
Concentration: 1 µM
It gave 96% for remaining binding (Interleukin-1 receptor-associated kinase 4 (IRAK4, Homo sapiens, UniProt Q9NWZ3)).
It gave 100% for remaining binding (Cyclin-dependent kinase 3 (CDK3, Homo sapiens, UniProt Q00526)).
For Tyrosine-protein kinase receptor UFO (AXL, Homo sapiens, UniProt P30530): remaining binding read 91%.
The remaining binding was 93% (Ephrin type-A receptor 6 (EPHA6, Homo sapiens, UniProt Q9UF33)).
Cyclin-dependent kinase 16 (CDK16, Homo sapiens, UniProt Q00536) — remaining binding: 98%.
It gave 73% for remaining binding (NUAK family SNF1-like kinase 2 (NUAK2, Homo sapiens, UniProt Q9H093)).
For Interleukin-1 receptor-associated kinase 1 (IRAK1, Homo sapiens, UniProt P51617): remaining binding read 84%.
Fibroblast growth factor receptor 3 (FGFR3, Homo sapiens, UniProt P22607, G697C) — remaining binding: 100%.
For Serine/threonine-protein kinase 26 (STK26, Homo sapiens, UniProt Q9P289): remaining binding read 81%.
The remaining binding was 100% (Serine/threonine-protein kinase tousled-like 1 (TLK1, Homo sapiens, UniProt Q9UKI8)).
It gave 75% for remaining binding (Serine/threonine-protein kinase TAO2 (TAOK2, Homo sapiens, UniProt Q9UL54)).
Macrophage-stimulating protein receptor (MST1R, Homo sapiens, UniProt Q04912) — remaining binding: 100%.
For Serine/threonine-protein kinase D2 (PRKD2, Homo sapiens, UniProt Q9BZL6): remaining binding read 100%.
Tyrosine-protein kinase CSK (CSK, Homo sapiens, UniProt P41240) — remaining binding: 100%.
Tyrosine-protein kinase ITK/TSK (ITK, Homo sapiens, UniProt Q08881) — remaining binding: 83%.
It gave 100% for remaining binding (Receptor tyrosine-protein kinase erbB-2 (ERBB2, Homo sapiens, UniProt P04626)).
The remaining binding was 83% (Tyrosine-protein kinase ABL1, non-phosphorylated (ABL1, Homo sapiens, UniProt P00519, Q252H)).
It gave 100% for remaining binding (Protein kinase C eta type (PRKCH, Homo sapiens, UniProt P24723)).
For Serine/threonine-protein kinase 33 (STK33, Homo sapiens, UniProt Q9BYT3): remaining binding read 94%.
The remaining binding was 94% (Mitogen-activated protein kinase kinase kinase 2 (MAP3K2, Homo sapiens, UniProt Q9Y2U5)).
Tyrosine-protein kinase JAK1, JH1 (JAK1, Homo sapiens, UniProt P23458) — remaining binding: 100%.
Mitogen-activated protein kinase kinase kinase 13 (MAP3K13, Homo sapiens, UniProt O43283) — remaining binding: 100%.
For Dual specificity mitogen-activated protein kinase kinase 3 (MAP2K3, Homo sapiens, UniProt P46734): remaining binding read 83%.
For Mitogen-activated protein kinase kinase kinase kinase 4 (MAP4K4, Homo sapiens, UniProt O95819): remaining binding read 91%.
For Serine/threonine-protein kinase PAK 4 (PAK4, Homo sapiens, UniProt O96013): remaining binding read 100%.

Block 2
Structure (SMILES): COc1ccc(-c2c(Nc3ccccn3)[nH]c3c(C4=CCCCC4)c(-c4ccccc4)nn3c2=O)cc1
Host: human patients
Medium: plasma
It gave 92600 ng/mL for median concentration (refers to: methionine; 150 mg once daily, 4 h).
refers to: methionine; 200 mg once daily, 4 h — median concentration: 111000 ng/mL.
It gave 105000 ng/mL for median concentration (refers to: methionine; 150 mg once daily, 0 h).
It gave 14.1 ng/mL for median concentration (refers to: S-adenosylmethionine; 200 mg once daily, 0 h).
refers to: S-adenosylmethionine; 150 mg once daily, 0 h — median concentration: 11.9 ng/mL.
The median concentration was 90600 ng/mL (refers to: methionine; 150 mg once daily, 6 h).
It gave 14.9 ng/mL for median concentration (refers to: S-adenosylmethionine; 100 mg once daily, 4 h).
refers to: methionine; 400 mg once daily, 8 h — median concentration: 87100 ng/mL.
The median concentration was 18.9 ng/mL (refers to: S-adenosylmethionine; 150 mg once daily, 2 h).
It gave 14.5 ng/mL for median concentration (refers to: S-adenosylmethionine; 200 mg once daily, 2 h).
It gave 118000 ng/mL for median concentration (refers to: methionine; 200 mg once daily, 0 h).
refers to: S-adenosylmethionine; 200 mg once daily, 4 h — median concentration: 13.7 ng/mL.
refers to: methionine; 200 mg once daily, 2 h — median concentration: 106000 ng/mL.

Block 3
Structure (SMILES): CC#CC(=O)N1CCC[C@H]1c1nc(-c2ccc(C(=O)Nc3ccccn3)cc2)c2c(N)nccn12
Action: inhibitor
Concentration: 1 µM
For Serine/threonine-protein kinase SIK3 (SIK3, Homo sapiens, UniProt Q9Y2K2); enzyme activity: inhibition read 2%.
It gave 0% for inhibition (Serine/threonine-protein kinase LATS2 (LATS2, Homo sapiens, UniProt Q9NRM7); enzyme activity).
The inhibition was 23% (Serine/threonine-protein kinase WNK3 (WNK3, Homo sapiens, UniProt Q9BYP7); enzyme activity).
For Macrophage colony-stimulating factor 1 receptor, autoinhibited (CSF1R, Homo sapiens, UniProt P07333); enzyme activity: inhibition read 0%.
It gave 5% for inhibition (Cyclin-dependent kinase-like 5 (CDKL5, Homo sapiens, UniProt O76039); enzyme activity).
Death-associated protein kinase 1 (DAPK1, Homo sapiens, UniProt P53355); enzyme activity — inhibition: 16%.
The inhibition was 1% (Ribosomal protein S6 kinase beta-1 (RPS6KB1, Homo sapiens, UniProt P23443); enzyme activity).
For Serine/threonine-protein kinase Nek9 (NEK9, Homo sapiens, UniProt Q8TD19); enzyme activity: inhibition read 0%.
It gave 5% for inhibition (Ephrin type-B receptor 6 (EPHB6, Homo sapiens, UniProt O15197); enzyme activity).
Proto-oncogene tyrosine-protein kinase ROS (ROS1, Homo sapiens, UniProt P08922); enzyme activity — inhibition: 0%.
The inhibition was 0% (Death-associated protein kinase 2 (DAPK2, Homo sapiens, UniProt Q9UIK4); enzyme activity).
SRSF protein kinase 2 (SRPK2, Homo sapiens, UniProt P78362); enzyme activity — inhibition: 4%.
The inhibition was 0% (Ribosomal protein S6 kinase alpha-2, kinase domain 2 (RPS6KA2, Homo sapiens, UniProt Q15349)).

Block 4
SMILES: COc1ccc2[nH]c3c4[nH]c5ccc(OC)cc5c4c4c(c3c2c1)C(=O)NC4=O
Concentration: 1 µM
Serine/threonine-protein kinase ULK3 (ULK3, Homo sapiens, UniProt Q6PHR2); competitive binding panel; reference: vehicle — remaining binding: 43%.
Leukocyte tyrosine kinase receptor (LTK, Homo sapiens, UniProt P29376); competitive binding panel; reference: vehicle — remaining binding: 58%.
Mast/stem cell growth factor receptor Kit (KIT, Homo sapiens, UniProt P10721, V559D/V654A); competitive binding panel; reference: vehicle — remaining binding: 66%.
The remaining binding was 19% (Tyrosine-protein kinase Mer (MERTK, Homo sapiens, UniProt Q12866); competitive binding panel; reference: vehicle).
The remaining binding was 72% (Mast/stem cell growth factor receptor Kit (KIT, Homo sapiens, UniProt P10721); competitive binding scan; autoinhibited form).
The remaining binding was 85% (Focal adhesion kinase 1 (PTK2, Homo sapiens, UniProt Q05397); competitive binding; FAK).
Calcium/calmodulin-dependent protein kinase type 1G (CAMK1G, Homo sapiens, UniProt Q96NX5); competitive binding panel; reference: vehicle — remaining binding: 76%.
For Epidermal growth factor receptor (EGFR, Homo sapiens, UniProt P00533, L858R/T790M); competitive binding panel; reference: vehicle: remaining binding read 35%.
For RAC-gamma serine/threonine-protein kinase (AKT3, Homo sapiens, UniProt Q9Y243); competitive binding panel; reference: vehicle: remaining binding read 98%.

Excerpt of the above (block 1):
For Serine/threonine-protein kinase 26 (STK26, Homo sapiens, UniProt Q9P289): remaining binding read 81%.
The remaining binding was 100% (Serine/threonine-protein kinase tousled-like 1 (TLK1, Homo sapiens, UniProt Q9UKI8)).
For Interleukin-1 receptor-associated kinase 1 (IRAK1, Homo sapiens, UniProt P51617): remaining binding read 84%.
Fibroblast growth factor receptor 3 (FGFR3, Homo sapiens, UniProt P22607, G697C) — remaining binding: 100%.
It gave 100% for remaining binding (Protein kinase C eta type (PRKCH, Homo sapiens, UniProt P24723)).
For Serine/threonine-protein kinase D2 (PRKD2, Homo sapiens, UniProt Q9BZL6): remaining binding read 100%.
For Mitogen-activated protein kinase kinase kinase kinase 4 (MAP4K4, Homo sapiens, UniProt O95819): remaining binding read 91%.
The remaining binding was 93% (Ephrin type-A receptor 6 (EPHA6, Homo sapiens, UniProt Q9UF33)).
It gave 75% for remaining binding (Serine/threonine-protein kinase TAO2 (TAOK2, Homo sapiens, UniProt Q9UL54)).
